# Experimental data from different studies.
# Values joined by “and” are separate records of one study, mostly repeats; a detail may differ. Numbers after ± are the reported error.
# Nicotinic acetylcholine receptor alpha1/beta1/epsilon/delta: Nicotinic acetylcholine receptor alpha1/beta1/epsilon/delta (Mus musculus, UniProt P02716+P04756+P09690+P20782)
# Chain of UniProt P02716 (whole entry, looked up): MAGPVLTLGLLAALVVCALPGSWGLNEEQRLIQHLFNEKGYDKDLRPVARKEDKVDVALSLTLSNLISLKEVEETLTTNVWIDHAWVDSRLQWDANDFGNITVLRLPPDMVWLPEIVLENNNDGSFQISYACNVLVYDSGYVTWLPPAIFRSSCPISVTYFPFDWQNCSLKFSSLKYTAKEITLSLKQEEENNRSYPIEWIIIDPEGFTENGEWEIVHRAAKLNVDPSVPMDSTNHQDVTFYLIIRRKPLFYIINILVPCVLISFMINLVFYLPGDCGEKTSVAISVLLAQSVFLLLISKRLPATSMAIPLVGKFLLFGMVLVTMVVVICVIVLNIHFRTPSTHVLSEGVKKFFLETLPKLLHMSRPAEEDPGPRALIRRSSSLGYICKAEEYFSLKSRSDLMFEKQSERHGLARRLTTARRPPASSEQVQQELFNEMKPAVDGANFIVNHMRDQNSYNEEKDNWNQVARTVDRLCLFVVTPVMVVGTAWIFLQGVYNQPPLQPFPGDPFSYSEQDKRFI
# Chain of UniProt P04756 (whole entry, looked up): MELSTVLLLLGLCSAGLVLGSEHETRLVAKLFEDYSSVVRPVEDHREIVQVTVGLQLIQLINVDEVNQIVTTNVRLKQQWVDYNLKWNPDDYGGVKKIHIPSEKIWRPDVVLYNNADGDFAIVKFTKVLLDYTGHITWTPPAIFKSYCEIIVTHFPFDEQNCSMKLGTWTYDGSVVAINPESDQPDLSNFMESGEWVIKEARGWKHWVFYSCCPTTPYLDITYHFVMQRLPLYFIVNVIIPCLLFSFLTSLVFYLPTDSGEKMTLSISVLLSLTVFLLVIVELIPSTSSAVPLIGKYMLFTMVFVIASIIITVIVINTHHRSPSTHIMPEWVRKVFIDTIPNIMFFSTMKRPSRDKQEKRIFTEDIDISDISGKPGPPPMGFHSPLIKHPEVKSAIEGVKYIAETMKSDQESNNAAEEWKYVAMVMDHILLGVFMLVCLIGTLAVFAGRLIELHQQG
# Chain of UniProt P09690 (whole entry, looked up): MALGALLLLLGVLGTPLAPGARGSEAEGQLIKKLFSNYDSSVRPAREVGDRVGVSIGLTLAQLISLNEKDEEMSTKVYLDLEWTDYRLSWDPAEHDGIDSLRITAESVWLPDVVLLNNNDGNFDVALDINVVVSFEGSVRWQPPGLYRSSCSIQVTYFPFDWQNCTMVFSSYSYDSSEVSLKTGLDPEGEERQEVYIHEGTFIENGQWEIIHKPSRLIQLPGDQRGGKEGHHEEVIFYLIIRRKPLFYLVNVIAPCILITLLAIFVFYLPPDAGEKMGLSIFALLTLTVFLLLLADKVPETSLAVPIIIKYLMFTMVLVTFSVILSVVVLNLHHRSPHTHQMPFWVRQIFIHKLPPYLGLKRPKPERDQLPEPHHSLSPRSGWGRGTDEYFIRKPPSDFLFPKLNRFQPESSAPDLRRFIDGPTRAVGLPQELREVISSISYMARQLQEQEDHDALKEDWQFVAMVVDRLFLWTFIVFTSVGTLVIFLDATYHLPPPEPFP
# Chain of UniProt P20782 (whole entry, looked up): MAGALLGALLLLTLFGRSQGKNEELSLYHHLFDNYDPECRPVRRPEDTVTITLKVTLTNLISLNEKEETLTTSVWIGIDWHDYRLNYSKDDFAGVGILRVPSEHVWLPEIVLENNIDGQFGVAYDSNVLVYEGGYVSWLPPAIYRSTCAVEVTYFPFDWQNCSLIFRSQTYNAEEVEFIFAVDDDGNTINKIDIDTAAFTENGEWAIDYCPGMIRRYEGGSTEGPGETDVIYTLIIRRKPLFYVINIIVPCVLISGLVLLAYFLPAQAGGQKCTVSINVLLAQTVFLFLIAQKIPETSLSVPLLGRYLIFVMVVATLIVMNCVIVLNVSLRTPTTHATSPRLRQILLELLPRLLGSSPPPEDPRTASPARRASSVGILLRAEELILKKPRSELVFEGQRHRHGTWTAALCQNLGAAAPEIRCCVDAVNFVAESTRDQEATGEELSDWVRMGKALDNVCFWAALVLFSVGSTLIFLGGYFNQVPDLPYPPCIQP
# Chain of UniProt P27361 (whole entry, looked up): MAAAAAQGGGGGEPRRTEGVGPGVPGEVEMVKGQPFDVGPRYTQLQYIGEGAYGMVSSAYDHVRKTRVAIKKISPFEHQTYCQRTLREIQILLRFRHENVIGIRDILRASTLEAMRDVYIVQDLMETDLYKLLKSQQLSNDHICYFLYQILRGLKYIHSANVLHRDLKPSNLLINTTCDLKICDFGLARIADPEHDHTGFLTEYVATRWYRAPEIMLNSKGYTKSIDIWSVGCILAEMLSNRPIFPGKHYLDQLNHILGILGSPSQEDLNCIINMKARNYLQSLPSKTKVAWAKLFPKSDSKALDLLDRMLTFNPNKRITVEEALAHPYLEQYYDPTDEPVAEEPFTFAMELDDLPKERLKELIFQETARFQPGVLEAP
# Chain of UniProt P09936 (whole entry, looked up): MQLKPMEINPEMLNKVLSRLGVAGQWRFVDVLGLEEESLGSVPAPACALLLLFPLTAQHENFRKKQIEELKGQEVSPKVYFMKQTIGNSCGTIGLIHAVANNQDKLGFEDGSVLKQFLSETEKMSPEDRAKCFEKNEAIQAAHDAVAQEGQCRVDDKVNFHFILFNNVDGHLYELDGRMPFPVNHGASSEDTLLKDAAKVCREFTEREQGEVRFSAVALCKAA
# Chain of UniProt Q16566 (whole entry, looked up): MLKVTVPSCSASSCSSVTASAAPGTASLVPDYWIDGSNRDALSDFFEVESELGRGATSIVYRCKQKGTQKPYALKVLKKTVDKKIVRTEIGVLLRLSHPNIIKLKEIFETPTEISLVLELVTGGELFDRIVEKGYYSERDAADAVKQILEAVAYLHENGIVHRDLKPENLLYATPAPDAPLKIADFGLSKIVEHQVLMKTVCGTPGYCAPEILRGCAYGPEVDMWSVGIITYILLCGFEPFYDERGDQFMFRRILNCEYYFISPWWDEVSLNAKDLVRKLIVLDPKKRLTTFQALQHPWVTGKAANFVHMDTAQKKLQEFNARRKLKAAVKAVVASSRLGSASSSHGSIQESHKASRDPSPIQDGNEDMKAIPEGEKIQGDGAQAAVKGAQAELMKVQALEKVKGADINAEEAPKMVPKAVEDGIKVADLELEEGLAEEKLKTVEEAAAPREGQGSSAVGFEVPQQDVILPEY
# Chain of UniProt Q13224 (whole entry, unmodified, looked up): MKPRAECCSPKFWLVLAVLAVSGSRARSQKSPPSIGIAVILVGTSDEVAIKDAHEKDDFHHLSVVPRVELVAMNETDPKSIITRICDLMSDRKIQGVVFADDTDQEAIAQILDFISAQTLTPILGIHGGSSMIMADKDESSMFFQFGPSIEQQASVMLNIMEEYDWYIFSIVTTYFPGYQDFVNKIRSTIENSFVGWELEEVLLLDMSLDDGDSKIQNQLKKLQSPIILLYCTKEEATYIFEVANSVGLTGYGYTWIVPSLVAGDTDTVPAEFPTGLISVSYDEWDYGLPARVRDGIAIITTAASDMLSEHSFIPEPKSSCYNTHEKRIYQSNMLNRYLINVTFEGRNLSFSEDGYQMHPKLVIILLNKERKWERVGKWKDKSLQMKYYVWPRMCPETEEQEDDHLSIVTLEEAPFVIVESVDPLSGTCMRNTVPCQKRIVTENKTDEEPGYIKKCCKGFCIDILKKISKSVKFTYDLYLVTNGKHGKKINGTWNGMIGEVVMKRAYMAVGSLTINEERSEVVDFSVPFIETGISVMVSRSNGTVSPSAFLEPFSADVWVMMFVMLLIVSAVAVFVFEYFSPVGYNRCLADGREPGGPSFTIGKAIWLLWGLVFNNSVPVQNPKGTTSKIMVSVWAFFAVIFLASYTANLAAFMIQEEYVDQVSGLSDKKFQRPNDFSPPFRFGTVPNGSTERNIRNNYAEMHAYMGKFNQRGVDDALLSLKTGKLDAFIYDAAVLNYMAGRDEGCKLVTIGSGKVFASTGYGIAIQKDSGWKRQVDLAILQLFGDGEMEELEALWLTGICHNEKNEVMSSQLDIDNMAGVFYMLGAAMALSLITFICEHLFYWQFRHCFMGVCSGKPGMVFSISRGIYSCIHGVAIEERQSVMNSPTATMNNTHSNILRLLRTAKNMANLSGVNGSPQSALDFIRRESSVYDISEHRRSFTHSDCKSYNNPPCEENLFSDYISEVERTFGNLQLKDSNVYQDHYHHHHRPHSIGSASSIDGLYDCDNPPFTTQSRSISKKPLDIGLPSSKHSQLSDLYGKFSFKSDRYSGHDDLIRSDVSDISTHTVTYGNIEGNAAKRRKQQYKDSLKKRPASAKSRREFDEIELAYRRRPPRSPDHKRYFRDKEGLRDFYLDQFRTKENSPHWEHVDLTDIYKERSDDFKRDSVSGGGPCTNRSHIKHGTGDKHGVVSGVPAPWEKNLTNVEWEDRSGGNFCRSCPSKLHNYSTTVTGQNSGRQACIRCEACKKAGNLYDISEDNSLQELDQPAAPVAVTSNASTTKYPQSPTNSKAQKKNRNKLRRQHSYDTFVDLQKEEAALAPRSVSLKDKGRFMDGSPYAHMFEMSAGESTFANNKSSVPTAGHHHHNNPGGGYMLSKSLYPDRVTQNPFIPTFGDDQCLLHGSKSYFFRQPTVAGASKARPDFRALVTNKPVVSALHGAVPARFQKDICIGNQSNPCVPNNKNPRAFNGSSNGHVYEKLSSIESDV
# Chain of UniProt Q8IY84 (whole entry, looked up): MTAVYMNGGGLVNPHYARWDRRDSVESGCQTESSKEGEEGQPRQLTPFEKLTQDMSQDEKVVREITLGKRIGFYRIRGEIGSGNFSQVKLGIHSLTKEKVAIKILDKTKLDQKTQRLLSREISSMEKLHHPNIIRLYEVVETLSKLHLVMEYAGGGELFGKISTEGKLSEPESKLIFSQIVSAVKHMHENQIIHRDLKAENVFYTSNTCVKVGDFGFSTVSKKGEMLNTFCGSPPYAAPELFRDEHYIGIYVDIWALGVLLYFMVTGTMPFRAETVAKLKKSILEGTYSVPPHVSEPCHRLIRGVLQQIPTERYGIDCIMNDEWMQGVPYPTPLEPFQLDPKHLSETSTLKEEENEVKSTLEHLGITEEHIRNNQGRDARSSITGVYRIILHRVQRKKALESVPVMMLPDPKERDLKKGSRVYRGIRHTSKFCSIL
SMILES,target,test,test system,conditions,scale,endpoint,result
CC(=O)NC[C@H]1[C@H](O)[C@H](O)[C@@H]2[C@H](O)C[C@@H](CO)N21,human placental β-N-acetylglucosaminidase,,,"0.02575 µM, run 2, together with: p-nitrophenyl GlcNAc",,inhibition,81.8%
O=C(Nc1cccnn1)N1CCC(=Cc2cccc(Oc3ccc(C(F)(F)F)cn3)c2)CC1,"Calcium/calmodulin-dependent protein kinase type IV (CAMK4, Homo sapiens, UniProt Q16566)","enzyme activity, inhibitor",,"50 µM, together with: autocamtide-2",,inhibition,52%
COc1cc(/C=C/c2ccc(O)cc2)cc(OC)c1,"O-methyltransferase (Sorghum bicolor, UniProt A0A1B6PFV1, W279A)",isothermal titration calorimetry,,apo protein,,∆H,-11.6 ± 0.167 kcal/mol
CN(C(=O)n1cnc(-c2ccc[n+]([O-])c2)c1)C1CCCCC1,"Fatty-acid amide hydrolase 1 (Faah, Rattus norvegicus, UniProt P97612)","enzyme activity, ABPP","rat, brain","oral, 10 mg/kg/day, 28 days",baseline: vehicle,fold change,-59
CC(C)(O/N=C(\C(=O)N[C@@H]1C(=O)N2C(C(=O)[O-])=C(C[N+]3(CCNC(=O)c4ccc(O)c(O)c4Cl)CCCC3)CS[C@H]12)c1csc(N)n1)C(=O)O,"Metallo-beta-lactamase VIM-2 (VIM-2, Escherichia coli, UniProt Q5U7L7)","substrate, stopped-flow fluorescence",,"pH 7.5, 10 °C",baseline: NDM-1,Trp fluorescence recovery time,10 fold
[2H]c1c([2H])c([C@]2([2H])CCCN2C(=O)C(C)(C)Oc2ccc3cn[nH]c3c2)c([2H])c([2H])c1C([2H])([2H])[2H],"Serine/threonine-protein kinase NIM1 (NIM1K, Homo sapiens, UniProt Q8IY84)",KINOMEscan,,1 µM,baseline: DMSO control,remaining binding,84%
COc1ccc(N2C(=O)N(c3c(C)cccc3Cl)Cc3cnc(Nc4ccc(C5CCN(C)CC5)cc4OC)nc32)nc1,"Mitogen-activated protein kinase 3 (MAPK3, Homo sapiens, UniProt P27361)",kinase activity,,0.5 µM,,inhibition,4.41%
COc1cc(Nc2ncc(F)c(Nc3ccc4c(n3)NC(=O)C(C)(C)O4)n2)cc(OC)c1OC,"Dual serine/threonine and tyrosine protein kinase (DSTYK, Homo sapiens, UniProt Q6XUX3)","binding, KINOMEscan",,"10 µM, RIPK5 kinase",,inhibition,100%
COc1cccc(CO)c1,"Adenosine receptor A2a (ADORA2A, Homo sapiens, UniProt P29274)","binding, radioligand competition",,"10 µM, together with: [3H]ZM241385",,displacement,8 ± 2%
O=C(CCl)C1CCCC2(CC2)C1 (centres unmarked),"Ubiquitin carboxyl-terminal hydrolase isozyme L1 (UCHL1, Homo sapiens, UniProt P09936)","covalent, intact protein LC-MS",,12.5 µM,,labelling,5.3%
CC[C@@H](C)[C@@H](NC(=O)[C@@H](Cc1ccc(O)cc1)NC(=O)[C@H]1CCCN1C(=O)[C@@H](CCCNC(=N)N)NC(=O)[C@H](N)Cc1c[nH]cn1)C(=O)N[C@H](C)C(=O)N[C@H](Cc1c[nH]cn1)C(=O)N[C@H](CCCNC(=N)N)C(=O)N[C@H](CCCCNC(=O)c1cccc(S(=O)(=O)F)c1)C(=O)N[C@H](Cc1ccc(O)cc1)C(=O)N[C@H](CO)C(=O)N[C@H](Cc1ccccc1)C(N)=O,"Transferrin receptor protein 1 (Tfrc, Mus musculus, UniProt Q62351)",flow cytometry,MC-38,"2 h, unit not given",baseline: 0 h,surface TFRC expression,0.898
CC(C)[C@@H](O)CC[C@@H](C)[C@H]1CC[C@H]2[C@@H]3CC=C4C[C@@H](O)CC[C@]4(C)[C@H]3CC[C@]12C,"Glutamate NMDA receptor; GRIN1/GRIN2B (GRIN1/GRIN2B, Homo sapiens, UniProt Q05586+Q13224, V564A)","positive allosteric modulator, two-electrode voltage clamp",Xenopus oocytes expressing GluN2B-V564A,"10 µM, 0.02% cremophor, together with: 100 µM glutamate and glycine",baseline: without compound,current response,238 ± 11%
CN(C(=O)n1cnc(-c2ccc[n+]([O-])c2)c1)C1CCCCC1,"kainate receptor, rat",binding,,"10 µM, together with: [3H]kainic acid",,inhibition,-9%
CCC[N+]1(CC)CCN(c2ccccc2Cl)CC1.[I-],Nicotinic acetylcholine receptor alpha1/beta1/epsilon/delta,"ion current, inhibitor, two-electrode voltage clamp",Xenopus oocytes,"30 µM, after co-application, unit not given, together with: ACh 30 µM",baseline: ACh alone,ACh response,0.641 ± 0.044
Clc1ccc(COc2cccc(CNCc3cccnc3)c2)cc1,"Aminoglycoside N(3)-acetyltransferase IV (aacC4, Salmonella sp, UniProt P08988)","neomycin acetylation, inhibitor",,together with: neomycin,,highest concentration without inhibition,> 200 µM
CN1CCN(c2cc(-c3ccncc3)c(-c3ccc4ccccc4c3)nn2)CC1,"Alpha-2A adrenergic receptor (ADRA2A, Homo sapiens, UniProt P08913)","agonist, FLIPR",,12.5 µM,,activation,-0.4%
C[C@H]1CN(c2n[nH]c3nc(N[C@H]4CC[C@H](NS(=O)(=O)CCC(F)(F)F)CC4)ncc23)CCO1,"Large ribosomal subunit protein uL5 (Homo sapiens, UniProt P62913)","Kinobeads competition, measured: RPL11",,"0.8 µM, unit not given",baseline: vehicle,remaining binding,1.2
O=C(Nc1cnccc1Cl)N1CCN(Cc2ccc3c(c2)OC(F)(F)O3)CC1,"muscarinic receptor, rat",binding,,"50 µM, together with: [3H]oxotremorine M",,inhibition,13%
O=C(CO)COP(=O)(O)O,"Triosephosphate isomerase (Leishmania mexicana, UniProt P48499, E66Q)",,,,,Km,1100 µM
CCCC[C@H](NC(=O)[C@H](CC(C)C)NC(=O)CNC(=O)[C@@H](NC(=O)[C@H](Cc1ccccc1)NC(=O)[C@H](CO)NC(=O)[C@@H](N)CC(=O)O)C(C)C)C(N)=O,"Substance-K receptor (TACR2, Homo sapiens, UniProt P21452)","radioligand binding, agonist",,reference compound,,Hill coefficient,0.7
COc1cc(N)c(Cl)cc1C(=O)NC1CN2CCC1CC2 (centres unmarked),"Mas-related G-protein coupled receptor member X4 (Homo sapiens, UniProt Q96LA9)","β-arrestin recruitment, TANGO luminescence, measured: MRGPRX4",,concentration not given,baseline: basal luminescence,log2 fold change,0.38
CC[N+]1(CC)CCN(c2ccc(C#N)cc2)CC1,Nicotinic acetylcholine receptor alpha1/beta1/epsilon/delta,"ion current, inhibitor, two-electrode voltage clamp",Xenopus oocytes,"30 µM, after co-application, unit not given, together with: ACh 30 µM",baseline: ACh alone,ACh response,0.483 ± 0.217
O=C(C1CCC(F)(F)CC1)N1CC(=O)N2CCc3ccccc3[C@@H]2C1,"TRPM channel TRPM_PZQ (Schistosoma mansoni, UniProt A0A5K4F0X5)",agonist,HEK293 cells transfected,,baseline: (R)-praziquantel,fold change in EC50,~5 fold
CCN(CC)CCCC[C@H](NC(=O)[C@H](CC(C)C)NC(=O)[C@H](C)NC(=O)[C@H](Cc1ccccc1)NC(=O)c1ccc(C(C)(C)C)cc1)C(=O)N[C@@H](CO)C(=O)OC,"C-C chemokine receptor type 1 (CCR1, Homo sapiens, UniProt P32246)",radioligand binding,,10 µM,,specific binding,93.4%
O=C(O)C(F)(F)C(F)(F)C(F)(F)F,"Albumin (ALB, Homo sapiens, UniProt P02768)",ITC,,"25 °C, together with: HSA 20 µM",,ΔG,-6.8 kcal/mol
CC(=O)P(=O)(O)OCCc1cn([C@H](Cc2ccccc2)C(=O)O)nn1,"1-deoxy-D-xylulose-5-phosphate synthase (dxs, Escherichia coli, UniProt P77488, R99A)",,,"concentration not given, variant enzyme",baseline: wild type,Ki fold change,~29 fold
C[C@H](N)C(=O)N[C@@H](CCCNC(=N)N)C(=O)N[C@H](C(=O)N[C@@H](CCCCC(C)(C)C)C(=O)N[C@@H](CCC(N)=O)C(=O)N[C@H](C(=O)N[C@@H](C)C(=O)N[C@@H](CCCNC(N)=O)C(=O)N[C@@H](CCCCN)C(=O)N[C@@H](CO)C(=O)N[C@H](C(=O)NCC(=O)NCC(=O)N[C@@H](CCCCN)C(=O)N[C@@H](C)C(=O)N[C@@H](Cc1ccc(O)cc1)C(N)=O)[C@@H](C)O)[C@@H](C)O)[C@@H](C)O,"SGF29, TTD (Homo sapiens, UniProt Q96ES7)","binding, ITC",,,baseline: Kme3 peptide KD over compound KD,preference over Kme3 peptide,1.7 fold
O=C(c1ccc(Cl)cc1)N1CCN2C(=O)N(OC(=O)N3CCOc4ccccc43)C(=O)C2C1 (centres unmarked),"Prolyl endopeptidase (PREP, Homo sapiens, UniProt P48147)",MS-based ABPP,SW-620 conditioned medium,"10 µM, 1 h, 37 °C","baseline: compound over DMSO, lower = more inhibition",median protein ratio,1.01
C[C@@H](NC(=O)[C@@H](N)Cc1ccc(O)cc1)C(=O)NCC(=O)N(C)[C@@H](Cc1ccccc1)C(=O)NCCO,"Mu-type opioid receptor (Oprm1, Mus musculus, UniProt P42866)",agonist,mouse spinal cord membranes,562 nM,baseline: basal binding,GTPγS binding,0.58% and 1.92% and -1.89% and 3.13%
